Published values of several laboratories.
Parts stem from different laboratories: compare values within a part only. Changes are numbered by the printed parent chain.

Set 1
Target: Ras GTPase-activating protein-binding protein 1, full length (G3BP1, Homo sapiens, UniProt Q13283)
UniProt Q13283, sequence (whole entry, looked up): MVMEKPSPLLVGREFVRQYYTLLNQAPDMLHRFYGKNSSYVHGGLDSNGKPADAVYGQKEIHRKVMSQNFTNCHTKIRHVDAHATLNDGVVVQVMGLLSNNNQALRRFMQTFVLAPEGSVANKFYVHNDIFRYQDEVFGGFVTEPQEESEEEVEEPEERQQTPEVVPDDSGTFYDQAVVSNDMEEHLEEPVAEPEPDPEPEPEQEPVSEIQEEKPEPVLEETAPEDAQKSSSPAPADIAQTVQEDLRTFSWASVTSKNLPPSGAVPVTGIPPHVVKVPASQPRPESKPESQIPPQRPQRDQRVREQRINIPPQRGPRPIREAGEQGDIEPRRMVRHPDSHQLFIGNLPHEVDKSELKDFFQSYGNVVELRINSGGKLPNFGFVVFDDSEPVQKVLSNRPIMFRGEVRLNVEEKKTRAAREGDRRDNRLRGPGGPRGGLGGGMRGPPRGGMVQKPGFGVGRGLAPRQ
Technique: RNA Bind-n-Seq
Form: RNA
Sample: in vitro
Tested at: 200 nM
Setting: whole 134-nt RNA, ends assumed
Together with: 150 mM KCl
Relative to: input library
Reading: higher = stronger binding
Constant ends, left off below: GGGAGUUCUACAGUCCGACGAUC … UGGAAUUCUCGGGUGUCAAGG
Oligonucleotide | log2 enrichment
ACGAUGCAGGUGGGCAUCUUUGGGAAGUGGGGCAAGGGGGGGAUAGGGAGGGGGGUAACACUUUGGGAACAGGUGGUCCCAGGUCGUUUC | 1.38
GCAGGAAGUAAAAACAAAUGGAAAUGCUUCGGAUAGUGGCAAAAGUGGGGGUUGCUAAGGAAAGGGUGGGAUGGGAGUGGGUAAAGAGUU | 0.893
AAGUCCUGUGCUACACAUCGUAUGUACCGAAUCGGUUUUUGGUUUUUGGUUUUUGGGAAAGUAUUAUGUUACGCCGUUCGGAUCUGCACU | -1.53
AAGUCCUGUGCUACACAUCGUAUGUACCGAAUCAAAUUUAAACCCAAACCCCCAAAAAAGUAUUAUGUUACGCCGUUCGGAUCUGCACUU | -0.529
AGUCCUGUGCUACACAUCGUAUGUACCGAAUCGGGUUUUUGGGAAAAAAAGGGAGGGAAAGUAUUAUGUUACGCCGUUCGGAUCUGCACU | 0.0185

Set 2
Target: Interferon regulatory factor 7, full length, phosphomimetic (IRF7, Homo sapiens, UniProt Q92985, residues 1-503, S101K/S471D/S472D/S475D/S476D/S477D/S483D/S484D/S487D)
Technique: protein-binding microarray
Form: double-stranded DNA, one strand shown
Sample: in vitro
Tested at: 250 nM
Setting: 60-bp whole probe
Together with: salmon DNA 0.4 mg/ml
Relative to: random background probes
Reading: higher = stronger binding
Constant ends, left off below: GCCTAGCAC … GTCTTGATTCGCTTGACGCTGCTG
Construct (chain): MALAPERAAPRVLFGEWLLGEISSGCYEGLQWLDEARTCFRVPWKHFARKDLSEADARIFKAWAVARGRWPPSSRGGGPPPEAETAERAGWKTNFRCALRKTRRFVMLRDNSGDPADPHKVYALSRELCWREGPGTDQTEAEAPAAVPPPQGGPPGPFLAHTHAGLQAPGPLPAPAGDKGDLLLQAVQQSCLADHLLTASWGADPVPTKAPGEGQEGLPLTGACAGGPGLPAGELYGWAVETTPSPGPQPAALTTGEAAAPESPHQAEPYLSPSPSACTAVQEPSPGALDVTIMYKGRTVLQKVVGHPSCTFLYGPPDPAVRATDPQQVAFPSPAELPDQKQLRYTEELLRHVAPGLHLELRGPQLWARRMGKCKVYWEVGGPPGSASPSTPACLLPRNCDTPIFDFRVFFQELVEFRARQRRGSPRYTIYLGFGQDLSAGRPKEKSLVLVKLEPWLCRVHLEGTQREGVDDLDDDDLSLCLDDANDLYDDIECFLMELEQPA
Oligonucleotide | log fluorescence [z-score]
GAGGATTTCAGTTTCGAGACGTGCTAG | 4.63
CCATTTCTGTTTTTGCTTTCGTGCTAG | 3.35
TCAGCTTCCTCTTTCTCACTGTGCTAG | 0.608
TTAGGTCTAGGTATCGGTTAGTGCTAG | 1.09
TTAGGTTTCGACTATCGGATAGTGCTA | 5.94
TTAGATATCGGGTTCCGATTAGTGCTA | 1.05
TCATCTCCAGGGTTTCTCACTGTGCTA | 0.153
GATGGTCTCCTACTGCTGACGTGCTAG | -0.165
ATGGAAATCTCAATGGGTTAGTGCTAG | -0.622
GACGGAGTGGGGACTGGGGACGTGCTA | -0.479
TTATGACTGGGGACTGGGTTAGTGCTA | -0.129
GACGGTCTCGGGACTGGGGACGTGCTA | 0.0644
TACGGTCTCCTACTGCTGACGTGCTAG | 0.0505
TACAAATCCAGCCCTACAGAGTGCTAG | 0.0925
GACGGACTGCTTCCCCTGACGTGCTAG | -0.159
GACGATCTGGGGTATCGAGACGTGCTA | -0.438
GACGATTTCAGTTTCAAGACGTGCTAG | 1.01
TCAGATATCAGACTGGATTAGTGCTAG | 0.183
TCATGCTTTCTTTTTGCACTGTGCTAG | 1.05
GACGGTTTCGGGATCGGGACGTGCTAG | 7.39
GACGGACTGCTACTGCTAACGTGCTAG | -0.868
TTACGTTTCGGGACTGGGTTAGTGCTA | 1.65
GACGATTTCGGGTTTCGAGCCGTGCTA | 2.41
TTAGGTTTCCTTTCCCTTCAGTGCTAG | 4.42
TAAGGTTCCCTTTTCCTTTAGTGCTAG | 4.33

Set 3
Target: RNA binding protein fox-1 homolog 2, RRM domain, GST-SBP tag (RBFOX2, Homo sapiens, UniProt O43251-10, residues 100-194)
Technique: RNA Bind-n-Seq
Form: RNA
Sample: in vitro
Tested at: 365 nM
Setting: natural RNA segment, single round, ends assumed
Relative to: no-protein control
Reading: higher = stronger binding
Constant ends, left off below: GGGAGUUCUACAGUCCGACGAUC … UGGAAUUCUCGGGUGCCAA
Target sequence (chain): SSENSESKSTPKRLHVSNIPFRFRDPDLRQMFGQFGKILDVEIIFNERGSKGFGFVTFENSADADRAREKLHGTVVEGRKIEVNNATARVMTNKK
Oligonucleotide | RBNS enrichment (R)
AUGCUUCUCUGUUGUCACACAACACCUUUCCCUGUUUCUCUUCAGUUGUCCUCUGAUAUUUUCACAGCCUGUUAGUGGCGGCUGAUCUGUAGAGGUAUGAAAAUACAGCC | 0.32
AACAAUAGCUGAAUGUCUUGGUAUUUAAAGUGUAAAUUAUCUAUGGCUUUGCCAAAUGAAGGGAGGGGGUGGGCAAGACAUGGAACUCCCCGGUCCCCACACACUUCGCA | 3.07
AAUGGAGCCUGAGCUGCUUAGAAGCCUUGGUUCAGGAUUCCAGCUGGGUUCAUGACUGUGAACACAAUGUGCCCUGUGCUGGGCCACAGCUUCCUUGUUUAUGAAGUGAG | 0.29
UGAAAGACUUUACCACAUCAGGGCUUCCUGUGGUUCAAAAUAGUUCAGAAUCAUCGUAAUUACAAAACUGAAAAUAAAAGUUCUGAAAAAUGACACAACUCCUAUAACAG | 0.362
UGUGAAAUCCUACCACAUUCCAUGUCUGAAUUUUUGGAUUCGGGGUGGAUUUUCGUUGUCCGUGGAAGAACACAUGGAUCUCUCUGGCUUUCUCACCCAAGUUGGCCACU | 0.274
AUCAUGAAUUACCUUAUUUCCAAAAGCAAGUACUCAAAUAAUUGUCUCAAGAGAGGAAGGACAAAACUGUUACAAGCUGAAAUAUUUGGGGAUUUGUUUGACUUGACUAG | 0.71
UAUCCCAGCUUGCUGAGGGGCAGGGAGAGCGCCUCUUCCUCUGGGCAGCGCUAUCUAGAUAGGUAAGUGGGGGCGGGGAAGGGUGCAUAGCUGUUUUAGCUGAGGGACGU | 1.28
AUUAAAAGAAUCUUGUAACUUUAUUCUUUUUUUUCUCCUGCUGAAACAAAUUAAACCAAUCAUAUGGACAUUUGGAUUGUCUGUGUUGGCCGCUCACCUAGUGCCCCAGG | 0.559
UGGAUCAGAAACUGGUUUUACCCGGACAUCACAAUCGAGGCCUUCAAAGCAGCGGGGAGUCGGGCUGUGGCAUGUCGUUCACAGAUAAAUGGCACACCUAGAUUCUUCUG | 0.472
AGAUCAGUCAGUAUUCUUACUUGUAGUUGAUGAGCACGAGGAGGGCUCCGUGGCUGCCUGCUACUAGCCCUGAGUUCUUAAUGGGCUCUGGAGAGCACCUCCAUUAUCUC | 3.57
CCAGGGCGCUAGAAGCCGGGUGGGGGUGAGGGUAGCCCUUGAGCCCUGUCCCUGCGGCUGUGAGAGCAGCAGGACCCUGGGCCAGUUCCAGAGACCUGGGGGUGUGUCUG | 0.402
AAGAAUUUUGUUUAUAUUGGGUUGGGGACCUAUAGGUUUAAAAUAGAAUGUCAGUCAGCUGACUUAAAAAACAUUGGUUUUACUAAGUCUGCCUUCCCCUUCUAAGGAAG | 0.861

Set 4
Target: Hepatocyte nuclear factor 3-alpha (Foxa1, Mus musculus, UniProt P35582, residues 1-468, full length assumed)
Technique: EMSA with sequencing
Form: double-stranded DNA, one strand shown
Sample: in vitro
Tested at: 10 and 20 nM
Setting: whole designed probe, mean of two concentrations, ends assumed
Relative to: negative control set to 0
Reading: higher = stronger binding
Constant ends, left off below: GTGAGCGGTGCCCATTGATGGGGAAC … TTTCACTGGGATCGTGGGGAC
Residues (chain): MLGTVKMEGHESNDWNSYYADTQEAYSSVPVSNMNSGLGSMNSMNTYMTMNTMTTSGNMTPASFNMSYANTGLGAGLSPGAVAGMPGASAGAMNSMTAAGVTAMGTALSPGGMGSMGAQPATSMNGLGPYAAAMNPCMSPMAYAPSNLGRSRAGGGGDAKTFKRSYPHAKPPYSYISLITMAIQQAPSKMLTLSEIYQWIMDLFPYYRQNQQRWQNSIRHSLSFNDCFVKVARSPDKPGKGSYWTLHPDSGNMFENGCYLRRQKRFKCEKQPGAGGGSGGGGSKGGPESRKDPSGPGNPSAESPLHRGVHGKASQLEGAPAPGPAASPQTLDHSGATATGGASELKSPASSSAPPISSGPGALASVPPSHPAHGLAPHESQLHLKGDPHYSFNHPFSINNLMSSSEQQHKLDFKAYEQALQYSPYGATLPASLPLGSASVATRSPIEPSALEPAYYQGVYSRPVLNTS
Oligonucleotide | normalised bound fraction
ATCTTCCCCCTCTTCCTTGCCCCACCAGCTCACCTTCCCGGGTTATTTGCAGATAGGAAAATAAATAAAGCCGGCATTCGTTAACCCTCTTCTGGCGCAAACTGCTGTTTGCTCTGGAGTCTCTATTGGCGGTAAGTCACGCCAGGCTCCGGGAGAGCAAAGCACCGTGTCAGGGCCATGATCCGGGGTGGCC | 0.367 ratio
AAAAATTTTAGTCTGGATTGATGTTAGGAAATACAATATCTAAGCAATTTGATGTTAAGTTCATCTTGACAGCTTTTAAGACAGAAAATATATGTTTACTTAGAAAATCAACAGAAAAAAATTGCTCTGTTTCTTATCTGACATGAGTCAAAACACGGAATTTTTATTTACATTAAGCTGTGAAATAAAACTG | 0.482 ratio
TACTGTGCAGCTGTAATTAGGCAGAGCACCAGGATACTTTCTGTTTTCAGCAAACACAGTATACAACAACATGTATGGTATACTTCCATTCATGTTTACTCTGAGAAATGACAGTGGGATCTGGAGTATGTGGCAGATTCATTTCTGTTACATAATCTTTTGTTTCTTTTCAATTTTTTACCATATGTATGTT | 0.259 ratio
ATCTTCCCCCTCTTCCTTGCCCCACCAGCTCACCTACGGGGGTTATTTGCAGATAGGAAAATAAATAAAGCCGGCATTCGTTAACGCAGTTCACGCGCATACTGCTGTTTGCTCTGCATCTAACATGGTCCTTACGCGAGGCGTGGCTCCGGGAGAGCAAAGCACCGTGTCAGGCGCATGATCCGGGGTGGCC | 0.364 ratio
AGAATCGGACGGAACGTTTCCACCATCTGGAACCACAGCAGCCAGAAGCAGAAAGGAGAGGTAATTGTCACCAAAGCATCACAAACTCTCCATGTTTACTTACTCTGCTCACACTTCTGGAGACATCTTCTCTTCCTCCCATATGGGGGGACAGCAAGGGAAAAACTGAAGGTGCATGTGAGCGTGAGAGAGT | 0.305 ratio
CATTAGAGTCAAAGTTGTTAAGGGGAGCTAGTCATAGCTACCACGTGGCCAGGCATGTGGAACCAGATGAATCATCAACACCAGGCACATAAAGTAAATAGATGAATAATGCTGACAACCTAGTTCATAGTGACACACTACTTGAGATATATAGAATAACATTATTACCCAGTAAGTATGTGAACATTCCGAT | 0.415 ratio
ATCTTCCCCCTCTTCCTTGCCCCACCAGCTCACCTTCCCGGGTATCTGCAAATAAGCAAAGTAAACAAAGCCGGCATTCGTTAACCCTCTTCTGGCGCAAACTGCACATTGGTCTGGATGAATCATGGTCCTTTGGCGACGCCAGGCTCCGGGAGAGCAAAGCACCGTGTCAGGGCCATGATCCGGGGTGGCC | 0.487 ratio

Set 5
Target: ABI1, truncated, D143A, DHFR fusion (Arabidopsis thaliana)
Technique: DHFR PCA, deep sequencing
Sample: yeast
Setting: methotrexate growth selection, single substitutions
Together with: (+)-ABA 0.39 µM
Relative to: wild-type fitted maximum
Reading: higher = stronger binding
Starting sequence: PYL1, truncated, DHFR fusion (Arabidopsis thaliana); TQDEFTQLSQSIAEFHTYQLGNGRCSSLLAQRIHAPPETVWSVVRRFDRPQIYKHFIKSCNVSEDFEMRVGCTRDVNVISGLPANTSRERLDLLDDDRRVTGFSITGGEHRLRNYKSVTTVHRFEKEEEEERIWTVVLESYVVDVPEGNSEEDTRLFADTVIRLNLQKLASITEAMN
Substitution | relative binding score
P146M | 21.9%
K54H | -10.5%
R74Q | -4.13%
Q7T | 41.6%
Q19S | 47.6%
T119L | 6.71%
V118T | 43.2%
E64Q | 46.7%
K58F | -9.03%
E129Y | 24.4%
Q167W | -0.294%
N85S | 72.1%

Some of these lines once more (set 2):
Oligonucleotide | log fluorescence [z-score]
CCATTTCTGTTTTTGCTTTCGTGCTAG | 3.35
TAAGGTTCCCTTTTCCTTTAGTGCTAG | 4.33
TTAGGTTTCGACTATCGGATAGTGCTA | 5.94
TACAAATCCAGCCCTACAGAGTGCTAG | 0.0925
